Measured values collected from several papers.
Each line is one published result; not all experiments were run side by side. ± marks the error that the study gave.
Target: Muscarinic acetylcholine receptor M1 (CHRM1, Homo sapiens, UniProt P11229)
Sequence (P11229 1-460, as in one of the studies): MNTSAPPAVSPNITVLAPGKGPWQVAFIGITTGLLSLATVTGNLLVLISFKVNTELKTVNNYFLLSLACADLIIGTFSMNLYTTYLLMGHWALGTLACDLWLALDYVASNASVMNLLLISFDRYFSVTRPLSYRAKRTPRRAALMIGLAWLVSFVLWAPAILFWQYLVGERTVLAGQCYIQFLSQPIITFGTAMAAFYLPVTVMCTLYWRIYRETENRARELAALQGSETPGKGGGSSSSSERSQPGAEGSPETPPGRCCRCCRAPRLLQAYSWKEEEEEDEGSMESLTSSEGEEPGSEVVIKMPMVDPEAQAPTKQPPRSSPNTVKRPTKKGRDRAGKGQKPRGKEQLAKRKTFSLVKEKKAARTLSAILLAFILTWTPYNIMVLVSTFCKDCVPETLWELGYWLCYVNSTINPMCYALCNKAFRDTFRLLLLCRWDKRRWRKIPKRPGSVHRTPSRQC

`COc1ccc(C(=O)Nc2c(-c3cccs3)nc3ccccn23)cc1` gave an inhibition of under 50% (ligand displacement, radioligand; 10 µM).
The Emax of `C=CCn1c(=O)c2ccccc2n2c(SCC(=O)OC)nnc12` is reported as 149 ± 13% (receptor activation, agonist; concentration not given, 16 h).
For `CCCCCCOc1ccc(C(=O)OCC[N+]2(C)CC=CCC2)cc1` (centres unmarked), the basal binding was 0.97 ± 0.03 fold (membranes; 100 µM, 15 h, no carbachol; baseline: control).
The Emax of `C=CCn1c(=O)c2ccccc2n2c(SC(C(=O)OCC)c3ccccc3)nnc12` (centres unmarked) is reported as 237 ± 65% (receptor activation, agonist; concentration not given, 16 h).
With `O=C1c2sc(-c3ccc(N4CCC(CO)CC4)nc3F)nc2CCN1c1cccnc1` the inhibition was -2% (ligand displacement, radioligand; 1 µM).
For `COc1ccc(C#CC2=C[C@H]3C[C@@]4(OC(=O)C=C24)[C@H]2CC[C@H](C(OC)OC)N32)cc1`, the inhibition was 3% (ligand displacement, radioligand; 10 µM).
`CCCCCCOc1ccc(C(=O)OCCN2CC=CCC2)cc1` has a basal binding of 1.12 ± 0.05 fold (membranes; 100 µM, 15 h, no carbachol; baseline: control).
`CC(C)Cn1c(SCC(=O)N2CCc3ccccc3C2)nc2cc(Cl)ccc2c1=O` has an inhibition of -15% (ligand displacement, radioligand; 10 µM).
For `C[Si](C)(C)C[C@@H](CN)CC(=O)O`, the inhibition was 9% (ligand displacement, radioligand; 75 µM).
`CO[C@@H](C)c1c(NC(=O)Nc2cnc(-n3nccn3)c(C(F)(F)F)c2)cnc2sc(C)nc12` gave an inhibition of 6.9% (ligand displacement, radioligand; 10 µM).
The inhibition of `CCC(=O)N(C)c1ccc(Cl)c(Cl)c1` is reported as under 10% (ligand displacement, radioligand; 10 µM).
The inhibition of `Cc1cccc(O[C@H]2CCC[C@@H](C(C)CNCc3ccncc3)C2)c1` (relative stereo) is reported as 75% (ligand displacement; 10 µM).
For `C[Si]1(C[C@H](CN)CC(=O)O)CCCC1`, the inhibition was 8% (ligand displacement, radioligand; 70 µM).
`C=CCn1c(=O)c2ccccc2n2c(SC3CCOC3=O)nnc12` (centres unmarked) gave an Emax of 124 ± 12% (receptor activation, agonist; concentration not given, 16 h).

Repeated from above:
The Emax of `C=CCn1c(=O)c2ccccc2n2c(SC(C(=O)OCC)c3ccccc3)nnc12` (centres unmarked) is reported as 237 ± 65% (receptor activation, agonist; concentration not given, 16 h).
With `O=C1c2sc(-c3ccc(N4CCC(CO)CC4)nc3F)nc2CCN1c1cccnc1` the inhibition was -2% (ligand displacement, radioligand; 1 µM).
